Experimental data pooled from the literature.
Parts stem from different laboratories: compare values within a part only. Changes are numbered by the printed parent chain.

Sample 1
Target: Eukaryotic initiation factor 4A-I (EIF4A1, Homo sapiens, UniProt P60842, residues 1-406, full length assumed)
UniProt P60842, sequence (whole entry, looked up): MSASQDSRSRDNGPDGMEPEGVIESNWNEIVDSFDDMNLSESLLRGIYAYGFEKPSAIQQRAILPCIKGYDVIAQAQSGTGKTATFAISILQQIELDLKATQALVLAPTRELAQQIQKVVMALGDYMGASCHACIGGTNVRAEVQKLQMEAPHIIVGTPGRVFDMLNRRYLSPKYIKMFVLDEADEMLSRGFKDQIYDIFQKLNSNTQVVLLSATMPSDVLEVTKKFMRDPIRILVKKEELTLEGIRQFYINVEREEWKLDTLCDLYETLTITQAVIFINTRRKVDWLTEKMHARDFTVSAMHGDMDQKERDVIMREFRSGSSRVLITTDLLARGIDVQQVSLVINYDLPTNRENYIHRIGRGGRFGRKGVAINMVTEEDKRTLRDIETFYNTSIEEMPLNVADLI
Method: RNA Bind-n-Seq
Form: RNA
Sample: in vitro
Concentration: not given
Setting: 4-mer, random 30-nt RNA, single round
Added: RocA, ADP, phosphate
Relative to: input library
Reading: higher = stronger binding
Quantity: 4-mer enrichment
CCGU: 0.631 fold
ACCU: 0.588 fold
AGUA: 1.62 fold
GACC: 0.67 fold
ACUU: 0.607 fold
GGAG: 3.67 fold
CUAA: 0.727 fold
ACGC: 0.627 fold
CUCC: 0.499 fold
AGCG: 1.28 fold
UUCA: 0.637 fold
AUUU: 0.94 fold
GAGC: 2.34 fold
UUUA: 0.959 fold
CACC: 0.621 fold
GGUG: 1.19 fold
ACCA: 0.663 fold

Sample 2
Target: NFE2L2, bZIP domain (human)
Method: DHFR protein complementation
Sample: yeast
Setting: single substitutions, most at no-binding floor
Relative to: wild-type JUN-FOS pair
Reading: higher = stronger binding
Quantity: binding fitness
Starting sequence: JUN, bZIP domain (human); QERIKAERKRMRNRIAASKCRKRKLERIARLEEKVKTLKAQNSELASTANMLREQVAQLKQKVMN; partner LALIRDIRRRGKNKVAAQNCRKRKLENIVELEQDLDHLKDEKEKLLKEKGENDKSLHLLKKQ
L38E: -1.51 natural log
I28S: -1.47 natural log
E32G: -1.44 natural log
L45V: -1.47 natural log
L52W: -1.6 natural log
M51N: -1.44 natural log
N42T: -1.33 natural log
E33T: -1.38 natural log
T37S: -1.58 natural log
Q41S: -1.51 natural log
L52V: -1.25 natural log
A40R: -1.34 natural log
L38V: -1.36 natural log
S47W: -1.46 natural log
N42E: -1.48 natural log
E33P: -1.48 natural log
V35F: -1.55 natural log
N42F: -1.28 natural log
M51S: -1.51 natural log
L45C: -1.55 natural log
L52P: -1.49 natural log
A57V: -1.17 natural log

Sample 3
Target: RING finger protein unkempt homolog, zinc fingers 1-6, SBP tag (UNK, Homo sapiens, UniProt Q9C0B0, residues 30-357)
UniProt Q9C0B0, sequence (30-357, looked up): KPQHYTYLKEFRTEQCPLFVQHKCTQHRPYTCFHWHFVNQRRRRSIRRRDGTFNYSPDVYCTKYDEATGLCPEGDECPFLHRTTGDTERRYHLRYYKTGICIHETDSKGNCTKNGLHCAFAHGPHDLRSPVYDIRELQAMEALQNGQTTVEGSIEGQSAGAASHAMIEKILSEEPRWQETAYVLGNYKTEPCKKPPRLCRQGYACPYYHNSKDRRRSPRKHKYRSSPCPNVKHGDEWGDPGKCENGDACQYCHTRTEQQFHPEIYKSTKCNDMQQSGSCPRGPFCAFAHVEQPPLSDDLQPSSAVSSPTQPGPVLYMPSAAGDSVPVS
Method: RNA Bind-n-Seq
Form: RNA
Sample: in vitro
Concentration: 100 nM
Setting: RNA with constant flanks, vertebrate orthologous sites, ends assumed
Relative to: input RNA pool
Reading: higher = stronger binding
Quantity: bound/input enrichment
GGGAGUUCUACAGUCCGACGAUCCGCAUCUGGUGAUAUUUGGGCUGGCCUUUCAGCUUAUGAUAAUAGCCCCAGAUCACCCCAUAGUCCUUCACCUAUUGCUACACCACCUAGUCAGAGCUCCUCUUGCUCUGAUGCCCCCAUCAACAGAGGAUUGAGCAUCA: 0.398 ratio
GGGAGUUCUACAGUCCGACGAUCCAGUUUUGUUUUUUUAAUGUUUCCUGUAAAUAAUGGAUAAUCAUUUUUUGUUUUGUUUUUAAGUGCUGUUUUAAAAAUGUGGAUAAACCAUAAGUGUACUUGCUGAAUUCAUUCAUUUUUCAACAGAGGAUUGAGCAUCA: 0.253 ratio
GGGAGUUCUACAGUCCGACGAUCACCUCAACUUGUUCUAGCUUGCAAUCCUUCAAAGUUGGAUCAUGCAUUAAUGCUAGGUAUUAGGAAUUUUUACUUCUCUCUCUCCACUGAUCAGAGAAACAGACAUUAACAACAGAAGUACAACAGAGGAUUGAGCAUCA: 0.835 ratio
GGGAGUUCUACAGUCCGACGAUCAAAUCUACUUCAUGCCUUGGACUCCAUAUAGGACAGACACAUUAAUCGAAUAUUCCUCCCUGGAUGACGUCCAAAACGCCCGGCAGACCAUCACCUACAAGCUGCCUCACCGGGUGGACGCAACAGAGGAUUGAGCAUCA: 0.425 ratio
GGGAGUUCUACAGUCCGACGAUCAUAAUCACUCUAAUUGUAAUCUGAAGAAAGUGUAACAUUGUGUAGCCUUUUUUGUAUAAAAUAGACAAAUAGAAAUGGUCCAAUUAGUUUCCUUUUUAAUAUGCUUAAAAUAAGCAGGUGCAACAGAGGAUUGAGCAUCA: 1 ratio
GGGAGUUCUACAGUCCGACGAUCACUGCUGUUAAUGCACUGUUUCAGCCCUUGUAUGAGUUUAGUGUAAUCUAGGAAAUUUUAUAGUUUUAUUUUAAUGAAUACCGGAUUGAUGCACAGUAGUGGGAAGUUCAUUGUCUUUUACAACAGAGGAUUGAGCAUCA: 1.29 ratio
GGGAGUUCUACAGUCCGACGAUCAUUCAAACCUGUGGUACCAUGGCCUCAUGUUGAAGGAGUAGAAGUGGACUUAGAGUCUAUUAGAAGAAAAAACAAGGCCAAAAAUGAACAAGAGCACCAUGCUGGAGGAGAUUCCCAGAACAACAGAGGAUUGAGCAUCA: 0.299 ratio
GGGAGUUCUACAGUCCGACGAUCUCAUUCUCUUCUCCCUUAUCCUGAUUUUAAAAGCCCUUUUUCUUUUCUUUUUUUUUCUAGGCAUAUGUAGUAACAUUAGCAGAAAGAUUUAAUUUGGGCAACUUUGAUUCUUAAAAGAGACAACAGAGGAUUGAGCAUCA: 0.869 ratio
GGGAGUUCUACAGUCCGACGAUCGAACUAAAGGAGUUAGCAUCUUUAUUUUUGUAUCAAAGAUAAAGAUUAUUUUGAAAUUAUUAAGAUUUUUACACAACUCUGAAAAUCUGUUGCUUUUGUAAACAAGUUGUUUAAUCUUAGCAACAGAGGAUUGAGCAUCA: 0.613 ratio
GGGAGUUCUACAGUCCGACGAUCUUGGGACCAAUUCUCCAAAUAGGAAUAGUAGUAAAAAAAAUAAGCAAAAUGAUAUUUGUAUAGAAAAAACAGAAGUUAAAUCAUGUAAAGUAAAUGCUGCCAGUGUUCCAGGCCCUAAAGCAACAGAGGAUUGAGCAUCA: 0.982 ratio
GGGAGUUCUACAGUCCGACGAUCUAUCCGUGUCAUACCAGCCUAUUAACCUCUUGUCUGUGCACAGCUUCAAAUGUUACCGUCUAGUUAGAUUUUUAUUUAAAAUAUGAAAAAACUGCUUUUCCCAAGAUGUUUUUUAAAAACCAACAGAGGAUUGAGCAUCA: 2.18 ratio

Sample 4
Target: Interferon regulatory factor 5, full length, phosphomimetic (IRF5, Homo sapiens, UniProt Q13568-2, residues 1-514, S451D/S453D/S456D/S462D)
Method: protein-binding microarray
Form: double-stranded DNA, one strand shown
Sample: in vitro
Concentration: 940 nM top
Setting: 60-bp whole probe
Added: salmon DNA 0.4 mg/ml
Relative to: random background probes
Reading: higher = stronger binding
Quantity: fitted relative affinity
All sequences stand within: GCCTAGCAC … GTCTTGATTCGCTTGACGCTGCTG
TGAGGTCTCGGTATCGGTTAGTGCTAG: 5.79 z-score
AAACTAGTGTTTTTCTCCTAGTGCTAG: 0.31 z-score
CTCACTCTAATCTCACTCTGTGTGCTA: 1.33 z-score
GACGATCTCAGACTGGAGTCGTGCTAG: -0.234 z-score
TTAGGACTGAGTATCGGTTAGTGCTAG: 4.01 z-score
GAAGGTTTCGGTTCCGGGACGTGCTAG: 11.9 z-score
TTAGGTTTCGGTTGCGGTTAGTGCTAG: 15.4 z-score
CACGGTCTCGGTCTCGGGACGTGCTAG: 3.4 z-score
TTAGGTCTCGGTTTTGGTTAGTGCTAG: 5.48 z-score
GACGGTATTGGACTGGGGACGTGCTAG: -0.144 z-score
GAAGATTTCAGTTCCGAGACGTGCTAG: 0.588 z-score
GACGGTATCGACTTTAGGGACGTGCTA: 3.81 z-score
AATCATTTTAGTTTTCATTAGTGCTAG: 1.41 z-score
GACGATCTCAGTATCGAGAGGTGCTAG: 1.75 z-score
GAGACTTTGCTCTGTGCATAGGTGCTA: -0.282 z-score
TTAGGTATCCTTACCCTTTAGTGCTAG: 0.24 z-score
GGATATATATCATTTAATTAGTGCTAG: -0.206 z-score
TTGGCTTCCTCTTTCTCTGCGTGCTAG: 0.737 z-score
TCACGTGACCCTCTCAAACTGTGCTAG: -0.101 z-score
GACGGTATCCGTATCCTGACGTGCTAG: 0.233 z-score
TTAGGTATCGACTATAGGTTAGTGCTA: 5.29 z-score
GACGGTTCCATTTTCCTGACGTGCTAG: 0.925 z-score

Sample 5
Target: Histone acetyltransferase KAT6A, both winged helices, GST fusion (KAT6A, Homo sapiens, UniProt Q92794, residues 1-181)
Method: protein binding microarray
Form: double-stranded DNA, one strand shown
Sample: in vitro
Concentration: not given
Setting: 8-mer, flanks averaged, mean of 2 arrays, mostly near background
Relative to: not given
Reading: higher = stronger binding
Quantity: E-score
Construct (chain): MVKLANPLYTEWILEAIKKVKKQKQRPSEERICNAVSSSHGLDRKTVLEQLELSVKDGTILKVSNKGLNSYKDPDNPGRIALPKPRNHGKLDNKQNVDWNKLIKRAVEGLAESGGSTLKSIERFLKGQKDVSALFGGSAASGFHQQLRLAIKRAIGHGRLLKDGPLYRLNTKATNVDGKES
ACTCATTC: -0.0173
GACTTCTA: -0.00842
CCGTCCAG: 0.0998
ATATATGG: -0.0611
AATATTCT: -0.0772
CCCCTCGG: 0.0517
CGTTGTGC: 0.123
AAAGTTAA: -0.0689
AAGCCGGA: 0.148
GAAACAAA: -0.0673
ACCGGGGG: 0.112
CAACAGTG: -0.0492
CTGAGAAA: -0.103
AATCAGGC: -0.116
GGTCGGCA: 0.164
AGGGGTTC: -0.258
CGGGAACA: 0.242
CAACATGC: 0.145

Some of these lines once more (sample 1):
CCGU: 0.631 fold
AGCG: 1.28 fold
ACUU: 0.607 fold
ACCU: 0.588 fold
UUCA: 0.637 fold
CUCC: 0.499 fold
CUAA: 0.727 fold
